Measured values collected from several papers.
Each numbered part is a random draw from the data of one study; scales do not carry over between parts. Several values in a cell are separate wells, animals, samples, runs or records.
UniProt P00519, sequence (whole entry, unmodified, looked up): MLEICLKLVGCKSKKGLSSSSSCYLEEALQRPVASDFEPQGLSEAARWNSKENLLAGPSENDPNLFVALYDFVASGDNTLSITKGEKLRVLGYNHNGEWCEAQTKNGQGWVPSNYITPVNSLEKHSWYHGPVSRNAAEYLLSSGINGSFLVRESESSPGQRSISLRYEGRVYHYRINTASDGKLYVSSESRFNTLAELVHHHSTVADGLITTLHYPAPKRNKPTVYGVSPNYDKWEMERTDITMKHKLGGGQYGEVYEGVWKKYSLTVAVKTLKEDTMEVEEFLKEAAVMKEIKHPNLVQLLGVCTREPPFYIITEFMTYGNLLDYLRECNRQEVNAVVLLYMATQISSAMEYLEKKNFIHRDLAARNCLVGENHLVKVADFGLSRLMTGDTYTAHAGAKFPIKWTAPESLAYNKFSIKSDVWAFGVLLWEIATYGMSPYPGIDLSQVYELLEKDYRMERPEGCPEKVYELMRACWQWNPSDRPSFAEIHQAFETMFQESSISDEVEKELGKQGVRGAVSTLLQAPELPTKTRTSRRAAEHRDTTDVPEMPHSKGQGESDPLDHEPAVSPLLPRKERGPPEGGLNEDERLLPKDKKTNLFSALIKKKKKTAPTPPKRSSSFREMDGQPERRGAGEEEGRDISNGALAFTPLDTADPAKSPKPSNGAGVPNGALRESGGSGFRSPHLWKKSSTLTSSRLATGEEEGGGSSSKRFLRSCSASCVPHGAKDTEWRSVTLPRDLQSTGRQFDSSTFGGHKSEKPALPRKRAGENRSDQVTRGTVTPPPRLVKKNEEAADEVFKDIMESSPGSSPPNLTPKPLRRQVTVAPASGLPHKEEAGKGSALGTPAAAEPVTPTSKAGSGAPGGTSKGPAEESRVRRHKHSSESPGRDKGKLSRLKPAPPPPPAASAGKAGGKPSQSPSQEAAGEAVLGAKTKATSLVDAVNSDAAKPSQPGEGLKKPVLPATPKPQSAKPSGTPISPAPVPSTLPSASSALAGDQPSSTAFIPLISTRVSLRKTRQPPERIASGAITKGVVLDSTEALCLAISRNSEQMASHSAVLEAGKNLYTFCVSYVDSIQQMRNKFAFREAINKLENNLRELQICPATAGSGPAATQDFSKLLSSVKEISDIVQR
UniProt P41595, sequence (whole entry, looked up): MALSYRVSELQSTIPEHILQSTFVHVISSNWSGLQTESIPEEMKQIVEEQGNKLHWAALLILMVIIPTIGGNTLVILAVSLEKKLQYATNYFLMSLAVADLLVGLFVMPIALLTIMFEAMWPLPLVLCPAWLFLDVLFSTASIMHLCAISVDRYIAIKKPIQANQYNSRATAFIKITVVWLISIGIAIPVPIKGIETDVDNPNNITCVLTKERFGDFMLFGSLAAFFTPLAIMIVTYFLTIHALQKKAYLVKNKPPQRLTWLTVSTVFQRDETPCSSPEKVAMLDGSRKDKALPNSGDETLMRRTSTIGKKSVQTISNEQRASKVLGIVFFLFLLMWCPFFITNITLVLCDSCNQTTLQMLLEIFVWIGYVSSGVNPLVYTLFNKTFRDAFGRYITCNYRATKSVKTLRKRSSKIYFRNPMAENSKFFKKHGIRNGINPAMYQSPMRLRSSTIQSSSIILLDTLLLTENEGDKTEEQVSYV

Sample 1
Target: Dual serine/threonine and tyrosine protein kinase (DSTYK, Homo sapiens, UniProt Q6XUX3)
Observed: enzyme activity
Mode: inhibitor
Concentration: 0.5 µM
Reference: control
Target sequence (Q6XUX3 1-929): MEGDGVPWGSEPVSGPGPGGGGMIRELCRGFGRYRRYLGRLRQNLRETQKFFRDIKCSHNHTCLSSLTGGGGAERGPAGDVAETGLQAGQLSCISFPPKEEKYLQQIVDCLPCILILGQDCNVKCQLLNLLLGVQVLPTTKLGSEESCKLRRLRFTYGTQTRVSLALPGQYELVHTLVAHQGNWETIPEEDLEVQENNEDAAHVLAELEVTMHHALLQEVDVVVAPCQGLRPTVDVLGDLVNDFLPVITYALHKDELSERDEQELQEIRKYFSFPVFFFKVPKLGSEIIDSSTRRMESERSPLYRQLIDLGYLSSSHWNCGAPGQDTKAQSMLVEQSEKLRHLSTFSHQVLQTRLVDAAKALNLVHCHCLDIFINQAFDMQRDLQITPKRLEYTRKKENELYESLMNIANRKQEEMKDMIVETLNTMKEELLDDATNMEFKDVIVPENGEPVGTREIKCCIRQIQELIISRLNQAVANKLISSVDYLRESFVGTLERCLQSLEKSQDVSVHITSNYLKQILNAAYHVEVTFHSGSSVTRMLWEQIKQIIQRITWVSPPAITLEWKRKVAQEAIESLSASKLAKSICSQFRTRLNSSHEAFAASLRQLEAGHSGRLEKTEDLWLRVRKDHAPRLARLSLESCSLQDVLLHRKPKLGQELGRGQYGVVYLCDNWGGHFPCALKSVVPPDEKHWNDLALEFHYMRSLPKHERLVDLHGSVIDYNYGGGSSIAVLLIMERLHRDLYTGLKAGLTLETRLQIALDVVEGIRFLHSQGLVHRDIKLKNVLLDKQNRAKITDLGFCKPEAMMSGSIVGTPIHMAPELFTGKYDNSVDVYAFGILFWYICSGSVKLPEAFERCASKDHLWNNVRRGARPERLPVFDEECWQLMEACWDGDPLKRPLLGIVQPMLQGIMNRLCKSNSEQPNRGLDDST
| SMILES | remaining activity [%] |
| --- | --- |
| C[C@@H]1CCN(C(=O)CC#N)C[C@@H]1N(C)c1ncnc2[nH]ccc12 | 98.4 |
| CCN(CC)C(=O)c1ccc(Nc2nc(OCC3CCCCC3)c3[nH]cnc3n2)cc1 | 106 |
| CN(C)C[C@H]1CCn2c(c(C3=C(c4cn(C)c5ccccc45)C(=O)NC3=O)c3ccccc32)C1 | 89.4 |
| O=C1c2ccccc2-c2n[nH]c3cccc1c23 | 99.5 |
| CN([C@@H](Cc1ccc(OS(=O)(=O)c2cccc3cnccc23)cc1)C(=O)N1CCN(c2ccccc2)CC1)S(=O)(=O)c1cccc2cnccc12 | 97.4 |
| Ic1cccc(CSc2nnc(-c3ccncc3)o2)c1 | 94.8 |
| O=c1cc(-c2cccc3c2Sc2ccccc2S3)oc(N2CCOCC2)c1 | 93.4 |
| c1ccc(-c2[nH]ncc2-c2ccnc3ccccc23)nc1 | 98.3 |
| c1ccc(-c2cnc(Nc3ccc(OCCN4CCCC4)cc3)s2)cc1 | 90.8 |
| COc1cc2ncnc(Nc3cccc(Cl)c3)c2cc1OC | 90.8 |
| Cn1nc2c3c(cccc31)C(=O)c1ccccc1-2 | 101 |
| Cc1cn(-c2cc(NC(=O)c3ccc(C)c(Nc4nccc(-c5cccnc5)n4)c3)cc(C(F)(F)F)c2)cn1 | 107 |
| CCOc1nc(NC(=O)Cc2cc(OC)ccc2OC)cc(N)c1C#N | 97.4 |
| O=C1C(Cl)=C(N2C(=O)CCC2=O)C(=O)c2ccccc21 | 95.4 |
| CCN(CC)CCNC(=O)c1c(C)[nH]c(/C=C2\C(=O)Nc3ccc(Cl)cc32)c1C | 105 |
| Nc1cccc(-c2cc3c(Oc4cccc(O)c4)ncnc3[nH]2)c1 | 83.4 |
| Cc1cc2ncc(-c3ccccc3)nc2cc1C | 95.5 |
| N#Cc1c(NC(=O)c2cccc3ccccc23)sc2c1CCCC2 | 100 |
| COc1cc2ncnc(Nc3ccc(O)c(Br)c3)c2cc1OC | 106 |
| Cc1nc2cc3nc(-c4cccs4)cnc3cc2n1C | 106 |
| O=C(Nc1cccc(Nc2nccc(Nc3cccc(C(F)(F)F)c3)n2)c1)C1CC1 | 93.8 |
| COc1cc2c(cc1OC)-c1[nH]nc(Nc3cccc(F)c3)c1C2 | 93.3 |
| N#C/C(=C\c1ccc(O)c(O)c1)C(=O)NCc1ccccc1 | 91 |
| O=C(NC(NC(=S)Nc1ccc(F)c([N+](=O)[O-])c1)C(Cl)(Cl)Cl)C(c1ccccc1)c1ccccc1 (stereo not drawn) | 100 |

Sample 2
Target: DNA polymerase theta, ATPase domain (POLQ, Homo sapiens, UniProt O75417)
UniProt O75417, sequence (whole entry, unmodified, looked up): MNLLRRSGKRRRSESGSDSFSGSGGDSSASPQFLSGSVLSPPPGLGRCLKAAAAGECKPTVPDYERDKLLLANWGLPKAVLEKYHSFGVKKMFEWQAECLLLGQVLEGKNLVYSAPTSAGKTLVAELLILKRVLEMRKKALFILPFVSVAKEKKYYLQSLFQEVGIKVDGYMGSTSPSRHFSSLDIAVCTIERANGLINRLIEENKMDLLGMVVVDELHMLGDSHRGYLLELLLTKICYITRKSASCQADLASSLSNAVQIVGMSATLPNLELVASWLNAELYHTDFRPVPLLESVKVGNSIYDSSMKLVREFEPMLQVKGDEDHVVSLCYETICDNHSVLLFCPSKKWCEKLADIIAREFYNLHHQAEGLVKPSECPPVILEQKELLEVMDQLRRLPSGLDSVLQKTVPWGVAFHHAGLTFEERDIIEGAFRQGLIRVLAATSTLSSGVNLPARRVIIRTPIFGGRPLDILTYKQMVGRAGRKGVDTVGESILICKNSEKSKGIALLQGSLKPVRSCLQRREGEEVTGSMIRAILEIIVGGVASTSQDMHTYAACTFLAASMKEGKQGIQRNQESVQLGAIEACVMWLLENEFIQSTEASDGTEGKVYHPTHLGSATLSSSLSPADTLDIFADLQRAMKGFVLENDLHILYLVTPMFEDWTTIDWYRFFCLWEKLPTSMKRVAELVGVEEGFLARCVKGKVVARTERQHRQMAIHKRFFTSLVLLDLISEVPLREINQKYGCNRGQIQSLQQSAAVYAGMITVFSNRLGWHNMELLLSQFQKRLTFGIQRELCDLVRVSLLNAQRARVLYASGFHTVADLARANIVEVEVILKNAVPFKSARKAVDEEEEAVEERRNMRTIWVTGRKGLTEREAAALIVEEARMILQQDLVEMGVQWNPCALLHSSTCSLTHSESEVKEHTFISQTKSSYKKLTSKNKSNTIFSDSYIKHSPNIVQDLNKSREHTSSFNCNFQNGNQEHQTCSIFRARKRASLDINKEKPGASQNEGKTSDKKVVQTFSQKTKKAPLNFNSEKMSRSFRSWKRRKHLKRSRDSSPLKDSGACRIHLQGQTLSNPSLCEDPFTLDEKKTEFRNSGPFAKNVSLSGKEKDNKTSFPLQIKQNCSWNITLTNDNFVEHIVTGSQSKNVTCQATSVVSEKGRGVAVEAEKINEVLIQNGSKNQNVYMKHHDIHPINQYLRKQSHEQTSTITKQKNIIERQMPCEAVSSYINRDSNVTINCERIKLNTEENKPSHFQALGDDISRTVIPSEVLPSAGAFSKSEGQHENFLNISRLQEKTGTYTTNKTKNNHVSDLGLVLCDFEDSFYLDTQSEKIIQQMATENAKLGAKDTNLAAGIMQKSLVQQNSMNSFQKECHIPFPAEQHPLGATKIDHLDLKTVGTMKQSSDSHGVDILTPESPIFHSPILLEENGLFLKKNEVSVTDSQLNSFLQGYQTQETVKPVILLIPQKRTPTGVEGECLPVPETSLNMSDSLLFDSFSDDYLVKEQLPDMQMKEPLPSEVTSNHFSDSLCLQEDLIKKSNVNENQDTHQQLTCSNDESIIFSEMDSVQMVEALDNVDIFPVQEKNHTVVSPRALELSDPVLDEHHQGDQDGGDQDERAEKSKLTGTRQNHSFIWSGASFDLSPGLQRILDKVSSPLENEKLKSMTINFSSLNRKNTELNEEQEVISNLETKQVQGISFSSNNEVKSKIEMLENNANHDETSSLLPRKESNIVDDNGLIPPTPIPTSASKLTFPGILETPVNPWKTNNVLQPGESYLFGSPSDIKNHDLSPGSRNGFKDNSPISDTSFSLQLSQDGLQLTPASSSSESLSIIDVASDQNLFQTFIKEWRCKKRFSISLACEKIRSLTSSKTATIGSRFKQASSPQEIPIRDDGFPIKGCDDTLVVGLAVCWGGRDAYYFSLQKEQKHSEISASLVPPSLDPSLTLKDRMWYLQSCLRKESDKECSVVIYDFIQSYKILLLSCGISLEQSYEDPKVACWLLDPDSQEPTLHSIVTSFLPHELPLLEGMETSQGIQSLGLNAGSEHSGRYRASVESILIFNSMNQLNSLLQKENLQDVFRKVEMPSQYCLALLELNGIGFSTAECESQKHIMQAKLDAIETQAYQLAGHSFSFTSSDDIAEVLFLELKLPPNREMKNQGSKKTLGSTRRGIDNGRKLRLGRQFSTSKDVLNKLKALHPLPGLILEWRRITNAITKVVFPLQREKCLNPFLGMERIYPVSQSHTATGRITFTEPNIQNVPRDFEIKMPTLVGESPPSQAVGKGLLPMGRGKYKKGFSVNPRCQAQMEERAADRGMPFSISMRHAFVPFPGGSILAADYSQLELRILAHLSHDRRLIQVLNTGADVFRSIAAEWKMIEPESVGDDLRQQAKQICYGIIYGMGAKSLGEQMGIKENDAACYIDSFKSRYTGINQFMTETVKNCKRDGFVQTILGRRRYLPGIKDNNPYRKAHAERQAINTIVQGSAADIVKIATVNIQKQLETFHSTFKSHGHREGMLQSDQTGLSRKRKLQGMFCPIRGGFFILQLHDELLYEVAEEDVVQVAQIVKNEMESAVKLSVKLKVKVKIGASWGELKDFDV
Observed: enzyme activity
Mode: inhibitor
Concentration: 77 µM
Reference: untreated
| SMILES | remaining activity |
| --- | --- |
| COC(=O)N[C@H](C(=O)N1CCC[C@H]1c1ncc(-c2ccc(-c3ccc(-c4cnc([C@@H]5CCCN5C(=O)[C@@H](NC(=O)OC)C(C)C)[nH]4)cc3)cc2)[nH]1)C(C)C | 102% |
| OC(CN1CCN(c2cccc(Cl)c2)CC1)C(c1ccccc1)c1ccccc1 (stereo not drawn) | 93.8% |
| CCOC(=O)c1[nH]c2cc(Cl)ccc2c1C(C(=O)NC(C)(C)C)N(C=O)Cc1ccc(Cl)cc1 (stereo not drawn) | 97.8% |
| COc1cc2c(cc1OC)-c1c/c(=N\c3c(C)cc(C)cc3C)n(C)c(=O)n1CC2 | 101% |
| N[C@@H](CS(=O)O)C(=O)O | 98.4% |
| CN(C)C(=O)Oc1cccc([N+](C)(C)C)c1 | 100% and 107% |
| Nc1ccc(-c2nc3ccc(-c4nc5ccc(N)cc5[nH]4)cc3[nH]2)cc1 | 129% |
| COC(=O)N[C@H](C(=O)N[C@@H](Cc1ccccc1)[C@@H](O)CN(Cc1ccc(-c2ccccn2)cc1)NC(=O)[C@@H](NC(=O)OC)C(C)(C)C)C(C)(C)C | 101% |

Sample 3
Cell line: Huh-7
Concentration: 10 µM
Time: 24 h
| Structure (SMILES) | viability [%] |
| --- | --- |
| CC1(C)OC(=O)NC1=O | 97.3 |
| Nc1ncnc2nc[nH]c12 | 96.6 |
| CCc1oc2ccccc2c1C(=O)c1cc(Br)c(O)c(Br)c1 | 87.3 |
| CC1(C)S[C@@H]2[C@H](NC(=O)[C@H](N)c3ccc(O)cc3)C(=O)N2[C@H]1C(=O)O | 97.1 |
| CN(C)CCOc1ccc(/C(=C(/CCCl)c2ccccc2)c2ccccc2)cc1 | 84.6 |
| COCCOC(=O)C1=C(C)NC(C)=C(C(=O)OC(C)C)C1c1cccc([N+](=O)[O-])c1 (stereo not drawn) | 92.8 |
| CN(Cc1cnc2nc(N)nc(N)c2n1)c1ccc(C(=O)NC(CCC(=O)O)C(=O)O)cc1 (racemic) | 53.2 |
| O=C(O)c1ccc(S(=O)(=O)N(Cl)Cl)cc1 | 99.1 |
| CCOC(=O)[C@H](CCc1ccccc1)N[C@@H](C)C(=O)N1CCC[C@H]1C(=O)O | 89.3 |

Sample 4
Target: Calcium/calmodulin-dependent protein kinase type II subunit alpha (CAMK2A, Homo sapiens, UniProt Q9UQM7)
UniProt Q9UQM7, sequence (whole entry, looked up): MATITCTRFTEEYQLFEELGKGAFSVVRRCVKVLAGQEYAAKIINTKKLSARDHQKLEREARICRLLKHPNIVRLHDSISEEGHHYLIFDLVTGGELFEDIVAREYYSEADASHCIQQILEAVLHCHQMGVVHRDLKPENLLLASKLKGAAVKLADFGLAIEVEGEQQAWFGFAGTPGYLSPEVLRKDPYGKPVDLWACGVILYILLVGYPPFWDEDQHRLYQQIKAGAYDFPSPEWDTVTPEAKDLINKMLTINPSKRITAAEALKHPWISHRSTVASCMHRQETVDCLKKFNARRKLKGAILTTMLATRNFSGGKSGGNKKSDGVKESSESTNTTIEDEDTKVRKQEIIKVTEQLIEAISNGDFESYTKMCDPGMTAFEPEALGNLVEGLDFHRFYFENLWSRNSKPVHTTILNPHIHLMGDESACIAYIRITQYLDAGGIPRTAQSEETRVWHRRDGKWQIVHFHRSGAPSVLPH
Observed: enzyme activity
Mode: inhibitor
Concentration: 10 µM
| Compound | inhibition [%] |
| --- | --- |
| C[C@@H]1CC[C@@]2(OC1)O[C@H]1C[C@H]3[C@@H]4CC[C@H]5C[C@@H](O)[C@H](O)C[C@]5(C)[C@H]4CC[C@]3(C)[C@H]1[C@@H]2C | -12 |
| Cc1cc2nc3c(=O)[nH]c(=O)nc-3n(C[C@H](O)[C@H](O)[C@H](O)COP(=O)(O)O)c2cc1C | 15 |
| Nc1ncnc2c1ncn2[C@H]1C[C@H](O)[C@@H](COP(=O)(O)O)O1 | 45 |
| O=c1c2cc(O)c(O)cc2oc2cc(O)c([C@@H]3O[C@H](CO)[C@@H](O)[C@H](O)[C@H]3O)c(O)c12 | -17 |
| Cc1c(C)c2c(c(C)c1O)CC[C@@](C)(CCC[C@H](C)CCC[C@H](C)CCCC(C)C)O2 (racemic) | -0.07 |
| CC(C)c1c(O)cc(/C=C/c2ccccc2)cc1O | -7 |
| COc1cc(CCC(O)CC(O)CCc2ccc(O)c(OC)c2)ccc1O (stereo not drawn) | -2 |
| CC1=C(C(=O)O)N2C(=O)[C@@H](NC(=O)[C@H](N)C3=CCC=CC3)[C@H]2SC1 | -8 |

Single results of other studies
Observed: binding
| SMILES | target | test | conditions | quantity | result |
| --- | --- | --- | --- | --- | --- |
| C[C@H](NC(=O)Nc1cc2[nH]ncc2c(CO)n1)c1ccccn1 | Tyrosine-protein kinase ABL1, phosphorylated (ABL1, Homo sapiens, UniProt P00519, E255K) | competition with immobilised ligand | 1 µM | remaining binding | 81.4% |
| Cc1nc(Cc2cccc(C(F)(F)F)c2)sc1-c1ccc(C(N)=O)nc1 | HTR2B (Homo sapiens, UniProt P41595) | radioligand binding | 10 µM | inhibition | 33.7% |

Some of these lines once more (sample 3):
| Structure (SMILES) | viability [%] |
| --- | --- |
| Nc1ncnc2nc[nH]c12 | 96.6 |
| CCc1oc2ccccc2c1C(=O)c1cc(Br)c(O)c(Br)c1 | 87.3 |
| CC1(C)S[C@@H]2[C@H](NC(=O)[C@H](N)c3ccc(O)cc3)C(=O)N2[C@H]1C(=O)O | 97.1 |
| CN(C)CCOc1ccc(/C(=C(/CCCl)c2ccccc2)c2ccccc2)cc1 | 84.6 |
| COCCOC(=O)C1=C(C)NC(C)=C(C(=O)OC(C)C)C1c1cccc([N+](=O)[O-])c1 (stereo not drawn) | 92.8 |
